# Results pooled from the literature.
# Lines come from different studies, so protocols differ. Values joined by “and” are separate records of one study, mostly repeats; a detail may differ. Numbers after ± are the reported error.
# Sequence of UniProt P38646 (whole entry, looked up): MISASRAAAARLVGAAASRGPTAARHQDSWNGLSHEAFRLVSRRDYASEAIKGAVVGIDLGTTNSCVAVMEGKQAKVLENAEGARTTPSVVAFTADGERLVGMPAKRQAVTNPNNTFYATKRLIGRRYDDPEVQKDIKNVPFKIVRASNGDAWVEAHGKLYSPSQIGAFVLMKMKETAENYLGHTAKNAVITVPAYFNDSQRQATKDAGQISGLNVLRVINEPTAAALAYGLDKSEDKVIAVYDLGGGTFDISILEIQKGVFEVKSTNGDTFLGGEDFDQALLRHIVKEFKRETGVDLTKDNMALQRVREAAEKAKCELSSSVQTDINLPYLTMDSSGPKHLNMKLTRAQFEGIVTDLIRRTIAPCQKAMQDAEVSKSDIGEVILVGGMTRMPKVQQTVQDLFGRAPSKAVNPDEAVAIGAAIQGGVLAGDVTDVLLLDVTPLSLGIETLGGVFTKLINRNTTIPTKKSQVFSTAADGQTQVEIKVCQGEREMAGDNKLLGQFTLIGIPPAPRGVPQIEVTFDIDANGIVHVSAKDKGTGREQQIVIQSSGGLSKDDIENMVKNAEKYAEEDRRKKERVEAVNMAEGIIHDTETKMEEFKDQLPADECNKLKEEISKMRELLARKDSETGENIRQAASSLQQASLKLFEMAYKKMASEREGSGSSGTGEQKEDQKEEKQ
Structure (SMILES),tested on,test,system,conditions,how to read,measurement,value
COc1c(CCC[P+](c2ccccc2)(c2ccccc2)c2ccccc2)cc2c(c1OC)OCO2.[I-],CAKI-1,SRB,,,,GI50,-5.61 log M
CC[C@H](C)[C@@H]1NC(=O)[C@@H]2CCCN2C(=O)[C@H](CC(C)C)NC(=O)[C@H](CC(C)C)NC(=O)CNC(=O)[C@@H](NC(=O)[C@@H](NC(=O)[C@H](CC(=O)O)NC(=O)CNC(=O)[C@@H](NC(=O)[C@H](C)NC(=O)CNC(=O)[C@H](CCCCN)NC(=O)[C@H](CC(C)C)NC(=O)[C@H](CC(C)C)NC(=O)[C@H](CCCCN)NC(=O)CNC(=O)[C@@H](NC(=O)[C@@H](N)CC(C)C)C(C)C)C(C)C)C(C)C)CSSC[C@@H](C(=O)O)NC1=O,,"RNA-seq, measured: Tnfrsf1b","mouse, traumatic brain injury model, frontal cortex and hippocampus",dose not given,relative to: TBI alone,log2 fold change,-2.41
Cc1cccc(C)c1NC(=O)C1CCCCN1 (stereo not shown),,,"Sprague-Dawley rat, female, sciatic nerve",60 mM,,motor block duration,36 min and 24 min
C[C@H]1CN(c2n[nH]c3nc(N[C@H]4CC[C@H](NS(=O)(=O)CCC(F)(F)F)CC4)ncc23)CCO1,"HSPA9 (Homo sapiens, UniProt P38646)","inhibitor, Kinobeads competition profiling",,0.032 µM,relative to: vehicle,relative abundance,1.05
CCCCC1(CCCC)CN(c2ccccc2)c2cc(SC)c(OCC(=O)N[C@@H](C(=O)NCC(=O)O)c3ccccc3)cc2S(=O)(=O)C1,,measured: HDL cholesterol,"human, serum","20 mg once daily, day 5",,serum HDL-C,50.3 mg/dL
Cc1cn(-c2cc(NC(=O)c3ccc(C)c(Nc4nccc(-c5cccnc5)n4)c3)cc(C(F)(F)F)c2)cn1,,,human patients,"dose not given, 12 months from baseline, caregiver distress","relative to: placebo, direction not given",difference in mean NPI score,-1
CS(=O)(=O)c1ccc(-c2nnc(/C=C/c3nnc(-c4ccc(C#N)cc4)o3)n2-c2ccccc2Cl)nc1,,"RNA-seq GSEA, measured: HALLMARK_MYC_TARGETS_V2","organoids, small intestinal, Apc Q1405X, mouse","dose not given, knockout organoids","relative to: DMSO, direction not given",normalized enrichment score,-1.8
C=CC(=O)Nc1cc(Nc2ncc(Cl)c(Nc3ccccc3C(=O)C(=O)N(C)C)n2)c(OC)cc1N1CCN(C)CC1,,RECIST v1.1 best response,human EGFR T790M NSCLC,"oral, 25 mg/day, per-protocol set",,patients with partial response,0%
CCCCCN1C[C@H](O)[C@@H](O)[C@H](O)[C@@H]1CO,,,Hexb-/- mouse,dose not given,relative to: untreated,survival extension,22%
CC(=O)c1c(C)c2cnc(Nc3ccc(C4CCN(CCS(C)(=O)=O)CC4)cn3)nc2n(C2CCCC2)c1=O,,tumour growth,"rat, MCF7 breast cancer model","oral, 20 mg/kg twice daily, 28 days",,T/C,18%
CC1=C(/C=C/C(C)=C/C=C/C(C)=C\C(=O)O)C(C)(C)CCC1,human coronavirus OC43,virus-induced cell killing,MRC-5,maximum over 10 doses,,maximum inhibition,0%
COc1cc(CCC[P+](c2ccccc2)(c2ccccc2)c2ccccc2)c(OC)c2c1OCO2.[I-],OVCAR-5,SRB,,,,GI50,-5.62 log M
O=S(=O)(O)C(F)(F)C(F)(F)C(F)(F)C(F)(F)C(F)(F)C(F)(F)C(F)(F)C(F)(F)F,,"RNA-seq pathway analysis, measured: drug degradation pathway genes",liver spheroids,"top non-cytotoxic, 10 d",,gene expression,decreased
C[C@]1(CO)Cc2ncn(-c3ccc(C#N)c(Cl)c3)c2C(=O)O1,,"aldosterone synthesis, inhibitor, measured: potassium","healthy Japanese adults, urine","40 mg, 0-24 h at steady state, multiple rising dose",,urinary excretion,33.9 mmol
COc1ccc(CCC2CCCC(CCc3ccc(OC)cc3)N2C[C@@H](O)CO)cc1.Cl (stereo in doubt),,,rat striatal slices,"100 µM, 30 min, no methamphetamine",,DOPAC overflow,1080 ± 315 pg/30 mL/mg
Cc1cn([C@H]2O[C@@H](CO[P@@](=O)(N[C@@H](C)C(=O)OC(C)C)Oc3ccccc3)[C@H](O)[C@H]2F)c(=O)[nH]c1=O,,measured: detectable HBV DNA,adults with chronic hepatitis B,"25 or 50 mg, week 24, after treatment discontinuation",,virologic relapse,89%
CN1CCN(S(=O)(=O)c2cc([N+](=O)[O-])ccc2N(CCOS(C)(=O)=O)CCOS(C)(=O)=O)CC1,,,"NSG mice, T-ALL PDX sample F","intraperitoneal, 25 mg/kg, single mouse trial",,T-C,> 316 days
Cc1ccc(NC(=O)c2ccc(CN3CCN(C)CC3)cc2)cc1Nc1nccc(-c2cccnc2)n1,human coronavirus OC43,virus-induced cell killing,MRC-5,maximum over 10 doses,,maximum inhibition,1.36%
Clc1cc2c(cc1Cl)Oc1cc(Cl)c(Cl)cc1O2,,"RNA-Seq, measured: Ephx2","female Sprague-Dawley rat, liver",dose not given,relative to: vehicle,mRNA level,1.3 fold
C[C@H]1O[C@@H](O[C@H]2CC[C@@]3(C)[C@@H](CC[C@]4(C)[C@@H]3C=C[C@]35OC[C@@]6(CCC(C)(C)C[C@H]63)[C@@H](O)C[C@]54C)[C@]2(C)CO)[C@H](O)[C@@H](O[C@@H]2O[C@H](CO)[C@@H](O)[C@H](O)[C@H]2O)[C@H]1O,,,"mouse, no ethanol, AAV8-TBG-Null, liver","dose not given, high dose",,NAD+/NADH ratio,3.47 and 2.9 and 3.16 and 2.53
C/C=C1\NC(=O)C(C(C)O)NC(=O)C(CCCN)NC(=O)C(CCO)NC(=O)C(CCN)NC(=O)C(CCN)NC(=O)C(NC(=O)CC(O)CCCCCCCCCCC)COC(=O)C(C(O)CCl)NC(=O)C(C(O)C(=O)O)NC1=O (stereo not shown),,calcein leakage,DOPC/DOPG/CHOL liposomes,"concentration not given, added: 20 wt% PEG-8000",,fusion time constant,7 ± 1 min
O=C(O)/C=C/C(=O)O.Oc1cccc2[nH]cc(CCNCc3ccccc3)c12,,,C57BL/6J mice,"subcutaneous, 1 mg/kg",relative to: pre-session baseline,body temperature change,0.2 ± 0.1 °C
CCCCCOc1ccc(-c2ccc(-c3ccc(C(=O)N[C@H]4C[C@@H](O)[C@@H](O)NC(=O)[C@@H]5[C@@H](O)[C@@H](C)CN5C(=O)[C@H]([C@@H](C)O)NC(=O)[C@H]([C@H](O)[C@@H](O)c5ccc(O)cc5)NC(=O)[C@@H]5C[C@@H](O)CN5C(=O)[C@H]([C@@H](C)O)NC4=O)cc3)cc2)cc1,,calcein leakage,DOPC/CHOL liposomes,"concentration not given, added: 20 wt% PEG-8000",,fusion time constant,3 ± 1 min
C[C@]12CC[C@H](O)C[C@H]1CC[C@@H]1[C@@H]2CC[C@]2(C)[C@@H](c3ccc(=O)oc3)CC[C@]12O,,,female nude mouse LCC2 xenograft,"0.5 mg/kg, day 9, tamoxifen-resistant",,tumour volume,81.5 mm3 and 57.2 mm3 and 44.6 mm3 and 51.9 mm3 and 45.1 mm3 and 53.5 mm3 and 53.8 mm3
C=CCNc1c(O)cc2c(O)c1C[C@@H](C)C[C@H](OC)[C@H](O)[C@@H](C)/C=C(\C)[C@H](OC(N)=O)[C@@H](OC)/C=C\C=C(/C)C(=O)N2,,,"patients with STS, GIST or other tumours",dose not given,,discontinuation due to progressive disease,48%

# A few entries again:
Structure (SMILES),tested on,test,system,conditions,how to read,measurement,value
C=CC(=O)Nc1cc(Nc2ncc(Cl)c(Nc3ccccc3C(=O)C(=O)N(C)C)n2)c(OC)cc1N1CCN(C)CC1,,RECIST v1.1 best response,human EGFR T790M NSCLC,"oral, 25 mg/day, per-protocol set",,patients with partial response,0%
